Measured values pooled from the literature.
Each numbered part is a random draw from the data of one study; scales do not carry over between parts.

Series 1 — method: protein binding microarray; molecule type: double-stranded DNA, one strand shown; sample: in vitro; tested at: not given; reference: not given; reading: higher = stronger binding
Target: Histone acetyltransferase KAT6A, winged helix 1, GST fusion (KAT6A, Homo sapiens, UniProt Q92794, residues 1-85)
Setting: 8-mer, flanks averaged, mean of 2 arrays, mostly near background
Construct (chain): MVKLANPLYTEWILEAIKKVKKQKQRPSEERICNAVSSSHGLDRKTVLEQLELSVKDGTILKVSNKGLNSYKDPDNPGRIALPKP
Oligonucleotide	E-score
ACCATGCT	-0.165
CGGCTGTA	0.236
GCTCGTTA	-0.139
ATGTGTTA	-0.139
ATAACGCC	0.0868
AACGCGCC	0.358
AGGGGCCA	-0.15
CCATCGAA	-0.18
TTGATAAA	-0.129
CTAAAAAC	0.057
CAATGCCG	0.387
CGTGCGCA	0.332
TGGATCAA	-0.272
CTCATAAC	-0.146
AGCATCGC	0.178
ACGTTCAA	-0.1
AACACTTA	-0.169
AACTCTCG	-0.0781
AACATAAC	-0.0339
TGACAACA	-0.126
GAGTCTCC	-0.0535
CTGCAGGA	-0.295
GGCCCACA	-0.0754
AGAGATCG	-0.00477
TGCCCAAA	-0.204

Series 2 — method: protein-binding microarray; molecule type: double-stranded DNA, one strand shown; sample: in vitro; tested at: 940 nM top; setting: 60-bp whole probe; added: salmon DNA 0.4 mg/ml; reference: random background probes; reading: higher = stronger binding; all sequences stand within: GCCTAGCAC … GTCTTGATTCGCTTGACGCTGCTG
Target: Interferon regulatory factor 5, full length, phosphomimetic (IRF5, Homo sapiens, UniProt Q13568-2, residues 1-514, S451D/S453D/S456D/S462D)
Oligonucleotide	fitted relative affinity [z-score]
TTAGATTTCAGTTTCGTTTAGTGCTAG	6.56
TACTTTCTACTTCTCTTTTTGTGCTAG	4.44
TTAGAAGTGAGACTGGATTAGTGCTAG	-0.255
TTACGTCTCGGTATCGGTTAGTGCTAG	7.49
GACGGTACCGGTATCGGGACGTGCTAG	2.84
TTAGAAATCAGTTTCGATTAGTGCTAG	8.58
TTAGGACTCGGTTTCGGTTAGTGCTAG	7.49
TATTGTGCAATTAGAGCCCTGTGCTAG	-0.732
GACTATTTCAGTCTCGAGACGTGCTAG	1.93
CTTTGTTTTTTTCTATATGCGTGCTAG	1.56
TTAGGTTTCGGGACGGGGTTAGTGCTA	10.8
TCGCCTTTTTTGTTGTTTTTGTGCTAG	1.89
CTTGGTAAATTTAGCCGACGGTGCTAG	-0.58
GACGATTTCAGTTGCGAGACGTGCTAG	0.313
CAATATTAGAGTCTCAACCCGTGCTAG	0.1
TTACGTATCCTTCTCCTTTAGTGCTAG	1.48
TTAGATATCGGGACTGGCTTAGTGCTA	-0.0536
GACGATATCACACTGGAGACGTGCTAG	-0.149
GACGGCTTCCTTATCCTGACGTGCTAG	0.248
TCAGTTTTGTTTTTCATACTGTGCTAG	2.14
CAGGAATTGAAAATTAGTGTTGTGCTA	-0.378
TCAGAAATCTCAATGGGACTGTGCTAG	0.0718
TTAGGTCTCCTTATCCTTCAGTGCTAG	0.405
GACGGACTGGGGGATCGGGACGTGCTA	0.299
TTAGGTTCCGACACTGGGTTAGTGCTA	0.505

Series 3 — method: RNA Bind-n-Seq; molecule type: RNA; sample: in vitro; tested at: 365 nM; reference: no-protein control; reading: higher = stronger binding
Target: RNA binding protein fox-1 homolog 2, RRM domain, GST-SBP tag (RBFOX2, Homo sapiens, UniProt O43251-10, residues 100-194)
Setting: natural RNA segment, single round, ends assumed
All sequences stand within: GGGAGUUCUACAGUCCGACGAUC … UGGAAUUCUCGGGUGCCAA
Residues (chain): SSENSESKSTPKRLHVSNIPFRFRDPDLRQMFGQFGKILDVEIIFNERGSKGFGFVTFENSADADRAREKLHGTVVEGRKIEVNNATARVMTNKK
Oligonucleotide	RBNS enrichment (R)
UCAUUGAAUUGCUGAAGUAAUGAUAAUGCCAUGAACCAGGAGAAGAUGGUUGUGGGGGUUUCUAGGAAGCAGCUGCUGUGACAGGCCAAUCCCAGGCUUGCCCCCGAGCC	0.677
UGUUACUCACACUUAUGUCUUACUGGGUUGCUGGUUUUCAUCGUAACACAGAACGAGGUUAUCUAGGGUUGUAGCUUUUGAUACAACUCCCCGAUCUAGAUUUAUUCCUA	0.402
CCUCUCCAGACACAGAGACAUGGGAGUGGGGAGCGGAGCUUGGCCCUGCGCCCUGUGCAGGGAAAGGGAUGGUCAGGCCCAGUUCUCGUGCCCUUAGAGGGGAAUGAACC	1.32
AGAAAGUCAGGAACUAGAGACCAGAGUCUGCAGGAACUUUGCCACUGCCCUUCACUGGCUAAUCCUGUACUUCUCUCUGUGUUCCUUGAGUGACAGGUGGUAAAACCCUU	0.211
CUCAAUCCUCGGUGAUAUGGGAAAGAGAACUGAGUAUUUGCCCUAUGACUGAGCUUUCUAUAGGAAUUUUAUUAAAGAAUGUUUAAUUUUGUUGUCCUUCUUAAUGUUCU	0.963
ACAGUCUGCACCUUUGAUACGGUAUUGCAUUUCCAAAGCCACCAAUCCAUUUUGUGGAUUUUAUGUGUUUGUGGCUUAAUAAUCAUAGUAACAACAAUAAUACCUUUUUC	0.754
UACUGGUCUUUGCUUUUAGUAAUAAAACAUCAAAUUAGGUUUGGAGGGAACUUUGAUCUUCCUAAGAAUUAAAGUUGCCAAAUUAUUCUGAUUGGUCUUUAAUCUCCUUU	0.226
UUGCCUGCUUUUGGGCCUAGAUAACGUCACUGUCUACAAAAAGCUAACUGCUUAGGUUUGAAAAGGCAACCAUGUAGAGAAAACUUGACAAUUGGGGCUCAUUGGGAAGU	0.536
AGCAGCUCAGGACCCUUUCCCUUAGGGGCUGCUUCCUCCCCUCAAAACCAGAACCUGGCAAGGGACUCACUAGCCUGGAUGGCCCAUGGGAGACCAGGACAGAUGAGAAG	0.376
AAAGGGCCUGAGGCCUUAGGCUCCUUUAAGGUCUCUGUCUCAGGCAUGGUGCUCAAUAUCUUGGCCAAAUAAGUUACUUCCCUUGAAUAUCCAGGAAUUUUAAACUAAAG	0.342
CUCUCCCCUUUUUAUAAUGUAGAAGAAAGUAAUUGUCCUGUCUCAUUUGGGAAUUGAAUGUGGCCUCAGAUUUCUUCUAGUACUUGUUUUCGAUACAUAAUUAUGGUUUC	7.98
UGUUUUCUUUAUUCCUUUUGCACUCUCGGUUCCCACCUUUGUGUUGGAGUUUACCAUGUUACCCUGUAAUUAAAAACAAAGAAUAGGUAACAUAUUGUGCCAGUGUUGCA	0.766

Series 4 — method: competition protein-binding microarray; molecule type: double-stranded DNA, one strand shown; sample: in vitro; tested at: 2 µM; added: Pho4 competitor, 0.05 µM; reading: higher = stronger binding; all sequences stand within: … GTCTTGATTCGCTTGACGCTGCTG
Target: Centromere-binding protein 1, full length, His-tagged (CBF1, Saccharomyces cerevisiae, UniProt P17106, residues 1-351)
Sequence of UniProt P17106 (whole entry, looked up): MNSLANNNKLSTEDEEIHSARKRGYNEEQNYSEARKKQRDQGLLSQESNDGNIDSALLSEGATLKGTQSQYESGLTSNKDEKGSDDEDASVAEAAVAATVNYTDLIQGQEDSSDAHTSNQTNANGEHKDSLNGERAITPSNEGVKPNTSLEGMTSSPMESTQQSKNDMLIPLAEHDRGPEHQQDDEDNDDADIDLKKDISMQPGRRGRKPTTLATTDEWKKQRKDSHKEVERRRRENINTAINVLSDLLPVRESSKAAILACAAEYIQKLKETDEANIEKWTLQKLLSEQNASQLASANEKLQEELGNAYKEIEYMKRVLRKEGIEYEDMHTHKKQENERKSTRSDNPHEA
Setting: whole 60-bp probe, lowest competitor level
Oligonucleotide	fluorescence intensity [a.u.]
CCTCAGGAAGACCTAAATGTGACGGTTCATCGTAGT	73.2
CTTTCCCGATCTTGTCACTTGACTTTAGCACATTTG	165
TCCTGATATTCTCCATTGTCATCCGTTTCGTCTTCC	64.4
CTTCTGTAAATTTGAAATGTGGGTGGACGCGCCCCG	64.3
ACCGCAGCACCGTTTCACATGTCCGTCTCTTTTGTT	96
AGCTCTAACAAAGTCAACGTGTAAGGCAGCAACTGG	91
AAAGCGGTAATTTGGATAGTGGGTGCAGATATCTAT	77.4
AGAATGGGCGGTTTGCACGTGAAGGTGATGTCTTGT	674
GAAGATCCAAGCCTGCACCTGACGGGTTCGAAAAAA	132
AACACACAGGGAAAGCACGATAAAAGGATACATAAG	85.7
TTGTCGCTCGAAGGACACGTGTACTCATAATAACCC	1430
CGGCAAGAAAAAGATCGTGTGTCTCTAGAGCAGCTT	67.2
ATATTGATGGATTGTCATGTGATAGATAATTTCGTT	2190
CTAACGAAGGTTTGTCACGAGACTTACAAGCCAAGT	852
CTTTCCCGATCTTGCAGGGTGGGTGTAGCACATTTG	75.3
CAGACTACTAACCATCACGTGATGGTTCTTTTCACT	11300
CTAACGAAGGTTTGTCACTTGACTTACAAGCCAAGT	129
CAACCAGTTGCGCAGGGCGTGCCAGATGAACGCTCT	72.7
GGATAATTTTCAGGACACGTGTTTCGAAAGGTTTGT	2180
GTCTTGTCTCATTGTCACACTACTTTCCCCACTTCA	126
TGCGCAACAACTTTTCACGTGTTGTTATGTCTAGAA	1080
CTTCTGTAAATTTGACCAGTGGGTGGACGCGCCCCG	73.1
CTTCTGTAAATTTTTCACGTGTCATGACGCGCCCCG	995
AAATTACTAAGTTGTCACGATACTTACCCCGTATGA	250
TGCGCAACAACTTGGCACGTGGGTGTATGTCTAGAA	1210

Series 5 — method: RNAcompete; molecule type: RNA; sample: in vitro; tested at: 20 nM; setting: 7-mer, probes averaged, single round; reference: mean of 7-mers; reading: higher = stronger binding
Target: PABPC1L2, full length, GST fusion (mouse, UniProt A0ABA7IW68)
Construct (chain): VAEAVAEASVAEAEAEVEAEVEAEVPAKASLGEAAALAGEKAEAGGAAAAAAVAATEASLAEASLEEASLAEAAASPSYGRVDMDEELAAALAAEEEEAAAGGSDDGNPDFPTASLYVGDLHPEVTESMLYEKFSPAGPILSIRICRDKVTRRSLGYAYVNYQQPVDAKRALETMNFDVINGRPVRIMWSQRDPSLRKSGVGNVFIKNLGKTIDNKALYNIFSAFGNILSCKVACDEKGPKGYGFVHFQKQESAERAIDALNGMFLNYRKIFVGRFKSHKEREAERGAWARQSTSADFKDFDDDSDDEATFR
Oligonucleotide	7-mer Z-score
UAAACAA	3.34
AGGCUAU	0.137
GAUGCGG	0.0442
AGCCGCG	-0.311
GUCUCUU	-0.418
GAAGCCC	-0.293
UUGAGAG	-0.0355
CUGUUCC	-0.34
UAUUAUG	-0.0536
AGAUCAC	-0.251
CUAAUAU	-0.267
CCCUCAC	-0.311
AACAGGG	1.44
GGCGUUC	-0.0428
UUUACAA	0.164
UGACCUA	-0.121
GGGGAGC	0.231
UAGAGUA	-0.108
GAAUAGU	-0.17
UUGAGUC	-0.362
CGGACUC	-0.142
UGGCUGG	0.133
GGAUCAU	-0.0482
GGUGAAG	0.0497
ACACGUC	-0.137

For quick reference, copied from above (series 5):
Oligonucleotide	7-mer Z-score
UUUACAA	0.164
UGGCUGG	0.133
GAAGCCC	-0.293
GAAUAGU	-0.17
AACAGGG	1.44
CGGACUC	-0.142
GUCUCUU	-0.418
AGAUCAC	-0.251
AGCCGCG	-0.311
CUAAUAU	-0.267
CUGUUCC	-0.34
